Measurements gathered from unrelated publications.
Compare with care: the assays were run in different laboratories. Values joined by “and” are separate records of one study, mostly repeats; a detail may differ. ± marks the error that the study gave.
BCHE: Cholinesterase (BCHE, Homo sapiens, UniProt P06276)
Sequence of UniProt P06276 (whole entry, looked up): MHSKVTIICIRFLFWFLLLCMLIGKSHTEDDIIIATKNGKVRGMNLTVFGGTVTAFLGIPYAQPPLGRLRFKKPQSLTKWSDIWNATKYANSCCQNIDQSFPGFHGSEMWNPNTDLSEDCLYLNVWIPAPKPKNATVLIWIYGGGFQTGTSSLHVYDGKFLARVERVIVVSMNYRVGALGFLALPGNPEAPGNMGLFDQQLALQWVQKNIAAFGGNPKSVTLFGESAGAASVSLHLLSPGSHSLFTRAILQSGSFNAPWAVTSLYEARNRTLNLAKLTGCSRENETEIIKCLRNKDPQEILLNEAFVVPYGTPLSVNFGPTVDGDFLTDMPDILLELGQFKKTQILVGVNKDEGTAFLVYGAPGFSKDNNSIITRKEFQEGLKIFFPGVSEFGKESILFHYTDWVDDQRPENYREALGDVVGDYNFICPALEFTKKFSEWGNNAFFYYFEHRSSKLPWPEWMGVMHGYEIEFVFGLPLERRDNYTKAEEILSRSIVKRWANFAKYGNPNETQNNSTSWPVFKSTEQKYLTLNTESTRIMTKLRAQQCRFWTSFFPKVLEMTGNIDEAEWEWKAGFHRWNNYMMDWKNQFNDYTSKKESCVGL
Sequence of UniProt O43614 (whole entry, unmodified, looked up): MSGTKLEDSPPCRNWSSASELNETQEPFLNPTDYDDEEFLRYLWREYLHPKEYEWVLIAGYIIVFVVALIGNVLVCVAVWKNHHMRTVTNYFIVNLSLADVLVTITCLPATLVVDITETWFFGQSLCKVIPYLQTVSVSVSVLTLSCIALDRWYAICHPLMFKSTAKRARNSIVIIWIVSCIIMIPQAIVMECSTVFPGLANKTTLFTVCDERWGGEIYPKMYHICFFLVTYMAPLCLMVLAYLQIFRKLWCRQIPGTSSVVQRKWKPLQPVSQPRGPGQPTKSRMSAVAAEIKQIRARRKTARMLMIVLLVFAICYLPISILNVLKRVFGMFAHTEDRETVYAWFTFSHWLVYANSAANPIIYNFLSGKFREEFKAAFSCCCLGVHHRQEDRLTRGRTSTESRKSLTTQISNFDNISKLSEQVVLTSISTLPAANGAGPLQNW
Sequence of UniProt P46091 (whole entry, looked up): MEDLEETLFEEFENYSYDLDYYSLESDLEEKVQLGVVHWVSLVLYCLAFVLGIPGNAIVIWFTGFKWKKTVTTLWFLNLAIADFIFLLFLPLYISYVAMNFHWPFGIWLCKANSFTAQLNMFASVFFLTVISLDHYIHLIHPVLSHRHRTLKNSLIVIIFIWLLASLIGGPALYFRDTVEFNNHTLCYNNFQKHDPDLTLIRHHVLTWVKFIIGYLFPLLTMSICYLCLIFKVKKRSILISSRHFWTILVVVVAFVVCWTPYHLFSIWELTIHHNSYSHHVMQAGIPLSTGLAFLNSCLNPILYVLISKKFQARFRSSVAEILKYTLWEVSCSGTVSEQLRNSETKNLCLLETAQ
Sequence of UniProt P48145 (whole entry, looked up): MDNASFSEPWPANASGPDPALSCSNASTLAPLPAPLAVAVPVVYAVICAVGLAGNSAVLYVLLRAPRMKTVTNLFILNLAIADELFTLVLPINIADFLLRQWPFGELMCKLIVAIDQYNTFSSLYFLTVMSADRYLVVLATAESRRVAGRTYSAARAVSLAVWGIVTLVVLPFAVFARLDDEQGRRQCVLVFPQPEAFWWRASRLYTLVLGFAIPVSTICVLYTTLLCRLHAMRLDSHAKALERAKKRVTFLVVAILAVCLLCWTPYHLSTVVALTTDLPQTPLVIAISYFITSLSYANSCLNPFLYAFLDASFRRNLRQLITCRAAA
Sequence of UniProt O95372 (whole entry, looked up): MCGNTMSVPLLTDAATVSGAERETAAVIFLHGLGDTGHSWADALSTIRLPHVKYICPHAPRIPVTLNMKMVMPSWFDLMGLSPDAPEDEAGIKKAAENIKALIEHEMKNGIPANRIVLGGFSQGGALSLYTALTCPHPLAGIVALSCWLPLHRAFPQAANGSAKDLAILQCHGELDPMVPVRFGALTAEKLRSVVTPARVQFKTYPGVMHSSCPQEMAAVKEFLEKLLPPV
Sequence of UniProt P11362 (whole entry, looked up): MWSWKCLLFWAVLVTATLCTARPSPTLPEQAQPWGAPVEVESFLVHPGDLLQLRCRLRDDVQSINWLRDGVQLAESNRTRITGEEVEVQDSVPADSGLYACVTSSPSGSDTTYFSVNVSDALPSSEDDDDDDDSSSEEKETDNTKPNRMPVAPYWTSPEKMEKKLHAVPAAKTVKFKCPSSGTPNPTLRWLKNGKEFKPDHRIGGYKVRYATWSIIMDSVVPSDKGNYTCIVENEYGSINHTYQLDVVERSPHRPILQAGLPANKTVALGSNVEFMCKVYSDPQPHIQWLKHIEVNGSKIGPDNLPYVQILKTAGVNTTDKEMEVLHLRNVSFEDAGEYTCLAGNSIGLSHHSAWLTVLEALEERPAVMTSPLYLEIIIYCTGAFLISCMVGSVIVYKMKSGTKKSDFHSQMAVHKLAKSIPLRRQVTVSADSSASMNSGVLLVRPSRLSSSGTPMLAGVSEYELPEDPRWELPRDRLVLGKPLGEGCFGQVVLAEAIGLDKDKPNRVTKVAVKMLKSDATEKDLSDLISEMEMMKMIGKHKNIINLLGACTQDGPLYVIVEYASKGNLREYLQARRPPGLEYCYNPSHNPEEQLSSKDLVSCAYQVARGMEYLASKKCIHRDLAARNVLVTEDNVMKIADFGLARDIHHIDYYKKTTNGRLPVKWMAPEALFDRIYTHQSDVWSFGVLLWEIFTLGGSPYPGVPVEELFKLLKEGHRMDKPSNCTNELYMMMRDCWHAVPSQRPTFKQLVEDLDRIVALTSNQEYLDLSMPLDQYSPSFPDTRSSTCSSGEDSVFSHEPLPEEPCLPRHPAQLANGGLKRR
Sequence of UniProt P14416 (whole entry, looked up): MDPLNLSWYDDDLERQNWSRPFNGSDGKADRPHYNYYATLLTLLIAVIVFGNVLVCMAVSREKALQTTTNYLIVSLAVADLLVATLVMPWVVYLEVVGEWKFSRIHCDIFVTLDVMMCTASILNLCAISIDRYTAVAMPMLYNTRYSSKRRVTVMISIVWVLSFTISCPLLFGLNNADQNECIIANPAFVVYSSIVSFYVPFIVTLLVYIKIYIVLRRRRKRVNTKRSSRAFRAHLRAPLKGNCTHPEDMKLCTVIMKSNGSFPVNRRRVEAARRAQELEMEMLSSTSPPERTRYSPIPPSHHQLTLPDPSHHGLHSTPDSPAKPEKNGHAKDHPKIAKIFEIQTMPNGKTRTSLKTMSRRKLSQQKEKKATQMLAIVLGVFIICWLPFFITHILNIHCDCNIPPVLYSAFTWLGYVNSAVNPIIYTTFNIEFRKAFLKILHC
Sequence of UniProt Q9Y271 (whole entry, looked up): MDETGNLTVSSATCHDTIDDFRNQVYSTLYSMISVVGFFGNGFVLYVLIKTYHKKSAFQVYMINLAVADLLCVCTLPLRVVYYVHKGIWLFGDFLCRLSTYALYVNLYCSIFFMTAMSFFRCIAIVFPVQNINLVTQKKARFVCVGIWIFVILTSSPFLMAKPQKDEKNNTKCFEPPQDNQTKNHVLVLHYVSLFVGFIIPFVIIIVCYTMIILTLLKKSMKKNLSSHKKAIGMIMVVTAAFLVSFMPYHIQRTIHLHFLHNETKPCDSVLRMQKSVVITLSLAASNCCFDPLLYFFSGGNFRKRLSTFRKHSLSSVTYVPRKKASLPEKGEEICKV
Sequence of UniProt Q15759 (whole entry, looked up): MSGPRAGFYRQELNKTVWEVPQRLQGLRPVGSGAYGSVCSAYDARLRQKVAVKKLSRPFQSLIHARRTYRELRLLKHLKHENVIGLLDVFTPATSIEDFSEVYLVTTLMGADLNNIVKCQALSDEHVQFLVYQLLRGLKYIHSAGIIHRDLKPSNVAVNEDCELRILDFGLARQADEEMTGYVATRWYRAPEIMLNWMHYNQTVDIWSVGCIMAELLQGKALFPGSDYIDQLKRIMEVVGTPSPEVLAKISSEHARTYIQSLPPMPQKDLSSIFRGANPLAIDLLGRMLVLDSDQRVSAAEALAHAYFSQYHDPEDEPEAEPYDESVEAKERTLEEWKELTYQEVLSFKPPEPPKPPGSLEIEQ
Sequence of UniProt P45880 (whole entry, looked up): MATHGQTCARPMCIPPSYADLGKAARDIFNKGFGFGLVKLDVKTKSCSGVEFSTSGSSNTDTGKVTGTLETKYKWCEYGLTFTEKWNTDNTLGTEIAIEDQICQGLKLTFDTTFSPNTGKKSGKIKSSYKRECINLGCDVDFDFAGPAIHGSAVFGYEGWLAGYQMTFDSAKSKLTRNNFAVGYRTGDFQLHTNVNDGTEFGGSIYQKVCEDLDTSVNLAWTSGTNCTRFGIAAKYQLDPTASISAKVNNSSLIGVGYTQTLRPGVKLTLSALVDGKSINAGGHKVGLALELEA

For `O=C(c1ccc(Cl)cc1)N1CCN2C(=O)N(OC(=O)N3CCOc4ccccc43)C(=O)C2C1` (centres unmarked), the median ratio was 1.18 (Acyl-protein thioesterase 2 (Homo sapiens, UniProt O95372); enzyme activity, inhibitor, MS-based ABPP; SW-620 in situ; 10 µM, 2 h, 37 °C; baseline: compound over DMSO, lower = stronger inhibition).
`CN[C@@]1(c2ccccc2Cl)CCCCC1=O` gave an inhibition of 2% (D(2) dopamine receptor (DRD2, Homo sapiens, UniProt P14416); radioligand binding, antagonist, radioligand displacement; 30 µM, long isoform).
The IC50 of `CCC(=O)N1CCN(C(=O)c2ccccc2)CC1` is reported as 3.16 µM (Plasmodium falciparum; D10).
For `CCOC(=O)C(=O)c1csc(NC=O)n1`, the efficacy was -87.1 ± 6.19% (BCHE; concentration not given, Triton).
`COc1ccccc1N1CCN(CCN(C(=O)C2CCCCC2)c2ccccn2)CC1` gave an IC50 of 6.31 µM (Plasmodium falciparum; GB4).
For `Cc1sc2c(c1C)C(c1ccc(Cl)cc1)=N[C@@H](CC(=O)OC(C)(C)C)c1nnc(C)n1-2`, BARD1 binding read “increased” (W12E, differentiated; CUT&RUN-qPCR, item: HPV origin; concentration not given).
With `O=C1NCc2c1c1c3ccccc3[nH]c1c1[nH]c3ccccc3c21` the efficacy was -52.9 ± 1.44% (BCHE; concentration not given, Triton).
The inhibition of `O=C(Nc1cnccc1Cl)N1CCN(Cc2ccc3c(c2)OC(F)(F)O3)CC1` is reported as -4% (Fibroblast growth factor receptor 1 (FGFR1, Homo sapiens, UniProt P11362); kinase activity, inhibitor; 50 µM, human, together with: poly(Glu:Tyr) substrate).
For `O=C(NCCCNc1nc(Nc2cccc(CN3CCOCC3)c2)ncc1C1CC1)C1CCC1`, the efficacy was -90.6 ± 7.18% (BCHE; concentration not given, Triton).
`CN(C(=O)n1cnc(-c2ccc[n+]([O-])c2)c1)C1CCCCC1` gave an inhibition of -9% (glycine transporter, rat; binding; 10 µM, together with: [3H]glycine).
`CN1CCN(c2cc(-c3ccncc3)c(-c3ccc4ccccc4c3)nn2)CC1` has an inhibition of 29.7% (Neuropeptides B/W receptor type 1 (NPBWR1, Homo sapiens, UniProt P48145); antagonist, FLIPR; 10 µM).
With `CC(C)OC(=O)c1cc2c(OCC(O)CNC(C)(C)C)cccc2[nH]1` (centres unmarked) the efficacy was -99.9 ± 7.64% (BCHE; concentration not given, Triton).
`COc1ccc(N2C(=O)N(c3c(C)cccc3Cl)Cc3cnc(Nc4ccc(C5CCN(C)CC5)cc4OC)nc32)nc1` gave an inhibition of 84% (Mitogen-activated protein kinase 11 (MAPK11, Homo sapiens, UniProt Q15759); kinase activity, inhibitor; 0.5 µM, kinase P38-BETA).
Under “reduction of basal binding”, `Cc1c(C(=O)NN2CCCCC2)nn(-c2ccc(Cl)cc2Cl)c1-c1ccc(Cl)cc1` is recorded as 6.05 ± 2.3% (TC-71; inverse agonist; membranes; concentration not given).
For `Oc1ccc2c3c1O[C@H]1[C@@H](O)CC[C@@]4(O)[C@@H](C2)N(CC2CCC2)CC[C@]314`, “log2 fold change” read 0.168 (Chemerin-like receptor 2 (CMKLR2, Homo sapiens, UniProt P46091); β-arrestin recruitment, TANGO luminescence, item: GPR1; concentration not given; baseline: basal luminescence).
`CC(C)n1cnc2c(NCCc3ccc(O)cc3)nc(-c3csc4ccccc34)nc21` has an efficacy of -53 ± 9.35% (BCHE; concentration not given, Triton).
For `C[C@H]1CN(c2n[nH]c3nc(N[C@H]4CC[C@H](NS(=O)(=O)CCC(F)(F)F)CC4)ncc23)CCO1`, the remaining binding was 1.2 (Non-selective voltage-gated ion channel VDAC2 (Homo sapiens, UniProt P45880); Kinobeads competition, item: VDAC2; 20 µM, unit not given; baseline: vehicle).
With `COc1cc(O)ccc1OCCNCC(O)COc1cccc2[nH]c3ccccc3c12` (centres unmarked) the efficacy was -104 ± 16% (BCHE; concentration not given, Triton).
`O=C(Nc1cccnn1)N1CCC(=Cc2cccc(Oc3ccc(C(F)(F)F)cn3)c2)CC1` gave an inhibition of 4.3% (Abhydrolase domain-containing protein 11 (Rattus norvegicus, UniProt D3ZXK4); probe labelling, inhibitor, competitive ABPP with azido-FP probe, item: Abhd11; rat brain membrane fraction; 0.1 µM).
`CNC(=O)[C@@H](c1ccccc1)N1CCc2cc(OC)c(OC)cc2[C@@H]1CCc1ccc(C(F)(F)F)cc1`: “normalised fluorescence response” -1.96 and -2.3 and -1.6 and -1.75 and 1.7 and -3.02 and 1.59 (Orexin receptor type 2 (HCRTR2, Homo sapiens, UniProt O43614, del254-292/I293E/K294R/L160H/M161K/Q254E); fluorescence sensor response, fluorescence; concentration not given).
Under “log2 fold change”, `CC[C@H](C)[C@H](NC(=O)CNC(=O)[C@@H](N)CCCCN)C(=O)N[C@@H](CC(C)C)C(=O)N[C@@H](CCCCN)C(=O)N[C@@H](CCCNC(=N)N)C(=O)N[C@@H](CCC(=O)O)C(=O)N[C@@H](CCCCN)C(=O)N[C@@H](CCCNC(=N)N)C(=O)N[C@@H](CC(C)C)C(=O)N[C@@H](CCCNC(=N)N)C(=O)N[C@@H](CCCNC(=N)N)C(=O)N[C@@H](CCCCN)C(=O)N[C@@H](CC(N)=O)C(=O)N[C@H](C(=O)N[C@@H](Cc1c[nH]cn1)C(=O)N[C@@H](Cc1c[nH]c2ccccc12)C(=O)N1CCC[C@H]1C(=O)N[C@@H](CCC(=O)O)C(=O)N[C@@H](CCC(=O)O)C(=O)NCC(=O)N[C@@H](CCCCN)C(=O)N[C@@H](CC(C)C)C(=O)N[C@@H](CCCNC(=N)N)C(=O)N[C@@H](CCC(=O)O)C(=O)N[C@@H](Cc1ccc(O)cc1)C(=O)N[C@@H](Cc1ccccc1)C(=O)N[C@@H](Cc1ccc(O)cc1)C(=O)N[C@@H](Cc1ccccc1)C(=O)N[C@@H](CCC(=O)O)C(=O)N[C@@H](CC(C)C)C(=O)N[C@@H](CC(=O)O)C(=O)N[C@@H](CCC(=O)O)C(=O)N[C@@H](C)C(=O)N[C@@H](CCC(=O)O)C(=O)N[C@@H](CCCNC(=N)N)C(=O)N[C@H](C(=O)N[C@@H](CC(N)=O)C(=O)N[C@H](C(=O)O)C(C)C)C(C)C)C(C)C` is recorded as 0.07 (HeLa and HEK-293T cells; phosphatase bead binding, competitive inhibitor, PIB pulldown iBAQ LC-MS/MS, item: PPP6R1; concentration not given; baseline: untreated control).
`CCC(C)CNCC(=O)N1CCc2sccc2C1COc1cccc(C)c1.Cl` (centres unmarked) gave an efficacy of -107 ± 9.04% (BCHE; concentration not given, Triton).
`C=CCN1CC[C@]23c4c5ccc(O)c4O[C@H]2C(=O)CC[C@]3(O)[C@H]1C5` has an inhibition of -3.9% (Cysteinyl leukotriene receptor 1 (CYSLTR1, Homo sapiens, UniProt Q9Y271); concentration not given).

A few entries again:
For `C[C@H]1CN(c2n[nH]c3nc(N[C@H]4CC[C@H](NS(=O)(=O)CCC(F)(F)F)CC4)ncc23)CCO1`, the remaining binding was 1.2 (Non-selective voltage-gated ion channel VDAC2 (Homo sapiens, UniProt P45880); Kinobeads competition, item: VDAC2; 20 µM, unit not given; baseline: vehicle).
`C=CCN1CC[C@]23c4c5ccc(O)c4O[C@H]2C(=O)CC[C@]3(O)[C@H]1C5` has an inhibition of -3.9% (Cysteinyl leukotriene receptor 1 (CYSLTR1, Homo sapiens, UniProt Q9Y271); concentration not given).
For `CCOC(=O)C(=O)c1csc(NC=O)n1`, the efficacy was -87.1 ± 6.19% (BCHE; concentration not given, Triton).
